Measurements gathered from unrelated publications.
Numbered parts are unrelated; each lists some results of a single study.

Block 1
Compound: CCN1/C(=C/C=C2\CCCC(/C=C/C3=[N+](CC)c4ccccc4C3(C)C)=C2NCCCCCCCCN2CCC(Nc3nc4ccccc4n3Cc3ccc(F)cc3)CC2)C(C)(C)c2ccccc21
Cell line: U-87 MG
Concentration: concentration not given
Relative to: DMSO
assay | log2 fold change
refers to: BRAT1 mRNA | -0.806
refers to: DNAJC6 mRNA | 0.917
refers to: RDH5 mRNA | -1.85
refers to: NR1D1 mRNA | 1.18
refers to: GOLGB1 mRNA | 0.914
refers to: HAUS8 mRNA | -1.2
refers to: PLS1 mRNA | 1.44
refers to: TBX2 mRNA | -1.21
refers to: CBX4 mRNA | 1.01
refers to: ARHGAP42 mRNA | -0.99
refers to: ZNF367 mRNA | -2.13
refers to: FAM72B mRNA | -2.39
refers to: PARD3B mRNA | 1.27
refers to: ARHGEF40 mRNA | -1.25
refers to: SNRK mRNA | 0.915
refers to: RRP12 mRNA | 0.875

Block 2
Species: female CD-1 mouse
Matrix: plasma
Route: oral
Dose: 60 mg/kg
SMILES | bioavailability
Cc1ccc(O)c(C)c1-c1cnc2[nH]c(-c3cnc(N4CCC(CN5CCN(c6ccc7c(c6F)CN(C6CCC(=O)NC6=O)C7=O)CC5)CC4)nc3)cc2c1C#N (stereo not shown) | 25.1%
Cc1ccc(O)c(C)c1-c1cnc2[nH]c(-c3cnc(N4CCC(CN5CCN(c6ccc(NC7CCC(=O)NC7=O)cc6F)CC5)CC4)nc3)cc2c1C#N (stereo not shown) | 93.9%
Cc1ccc(O)c(C)c1-c1cnc2[nH]c(-c3cnc(N4CCC(CN5CCN(c6ccc7c(c6)C(=O)N(C6CCC(=O)NC6=O)C7=O)CC5)CC4)nc3)cc2c1C#N (stereo not shown) | 67%
Cc1ccc(O)c(C)c1-c1cnc2[nH]c(-c3cnc(N4CCC(CN5CCN(c6cc7c(cc6F)c(N6CCC(=O)NC6=O)nn7C)CC5)CC4)nc3)cc2c1C#N | 33.4%
Cc1ccc(O)c(C)c1-c1cnc2[nH]c(-c3cnc(N4CCC(CCN5CCN(c6ccc(NC7CCC(=O)NC7=O)cc6F)CC5)CC4)nc3)cc2c1C#N (stereo not shown) | 31.6%

Block 3
SMILES: COCCCCCCC1CC2C(CCC3(C)C(O)CCC23)c2ccc(O)cc21 (stereo not shown)
cell line | assay | conditions | how to read | mRNA level ratio
SK-OV-3 | DNA microarray, refers to: GZMK | 50 µM | relative to: untreated cells | 17.2
A549 | DNA microarray, refers to: CCL11 | 10 µM | relative to: untreated cells | 1
PANC-1 | DNA microarray, refers to: ACTB | 50 µM | relative to: untreated cells | 1.18
PANC-1 | microarray, refers to: ACTA2 | 10 µM | relative to: untreated | 0.811
A549 | DNA microarray, refers to: ACTB | 10 µM | relative to: untreated cells | 0.978
A549 | microarray, refers to: ACTA2 | 10 µM | relative to: untreated | 1.15
PANC-1 | DNA microarray, refers to: CCL22 | 50 µM | relative to: untreated cells | 1
A549 | microarray, refers to: ADAMTS14 | 10 µM | relative to: untreated | 1.03
A549 | DNA microarray, refers to: GZMK | 10 µM | relative to: untreated cells | 15.1
A549 | microarray, refers to: CCL8 | 10 µM | relative to: untreated | 38.7

Block 4
Organism: Arabidopsis thaliana
Strain: Col-0
Concentration: 6.25 µg/mL
Notes: seed germination
Compound | root length
CCCN1C(=O)C(O)(C(=O)O)Oc2cc(F)ccc21 (stereo not shown) | 0.922 cm
O=C(O)C1(O)Oc2cc(F)ccc2N(Cc2ccccc2)C1=O (stereo not shown) | 0.475 cm
Cc1ccc2c(c1)OC(O)(C(=O)O)C(=O)N2Cc1ccccc1 (stereo not shown) | 1.14 cm
CN1C(=O)C(O)(C(=O)O)Oc2cc(F)ccc21 (stereo not shown) | 1.05 cm
CC(C)(C)c1ccc(Oc2ccc3c(c2)OC(O)(C(=O)O)C(=O)N3Cc2ccccc2)cc1 (stereo not shown) | 0.92 cm
O=C(O)C1(O)Oc2ccccc2N(Cc2ccccc2)C1=O (stereo not shown) | 1.25 cm
O=C(O)C1(O)Oc2cc(Br)ccc2N(Cc2ccccc2)C1=O (stereo not shown) | 1.05 cm
O=C(O)C1Oc2cc(F)ccc2N(Cc2ccccc2)C1=O (stereo not shown) | 1.06 cm
CCN1C(=O)C(O)(C(=O)O)Oc2cc(F)ccc21 (stereo not shown) | 0.987 cm
O=C(O)C1(O)Oc2cc(Cl)ccc2N(Cc2ccccc2)C1=O (stereo not shown) | 1.22 cm
CC(C)=CCN1C(=O)C(O)(C(=O)O)Oc2cc(F)ccc21 (stereo not shown) | 1.15 cm
COc1ccc2c(c1)OC(O)(C(=O)O)C(=O)N2Cc1ccccc1 (stereo not shown) | 1.18 cm

Repeated from above (block 3):
cell line | assay | conditions | how to read | mRNA level ratio
A549 | microarray, refers to: ADAMTS14 | 10 µM | relative to: untreated | 1.03
A549 | DNA microarray, refers to: GZMK | 10 µM | relative to: untreated cells | 15.1
A549 | microarray, refers to: CCL8 | 10 µM | relative to: untreated | 38.7
